Measurements gathered from unrelated publications.
A part holds a random share of what one study measured.

Block 1
Target: RNA binding protein fox-1 homolog 2, RRM domain, GST-SBP tag (RBFOX2, Homo sapiens, UniProt O43251-10, residues 100-194)
Method: RNA Bind-n-Seq
Form: RNA
Medium: in vitro
Tested at: 365 nM
Notes: natural RNA segment, single round, ends assumed
Baseline: no-protein control
Reading: higher = stronger binding
Shared flanks, not repeated: GGGAGUUCUACAGUCCGACGAUC … UGGAAUUCUCGGGUGCCAA
Residues (chain): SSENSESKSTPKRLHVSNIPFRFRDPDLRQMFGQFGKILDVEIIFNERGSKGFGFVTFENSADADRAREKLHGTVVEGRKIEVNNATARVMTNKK
Strand | RBNS enrichment (R)
AAACGGGCUGCCCUAGUCAAGCCCAGUCCCUUCAACAGUAUGUCUGAUGCACCACAGGCCCUCCCUACUGGAAGUGGGAACUUCAAAUGGAAAUUGGAGCCAUCUUUUAU | 0.711
CACGAGAGACCAUGUAUAUAAAAUAGUCAUGACGACACUGACCUCUUGCACUUGUACAUAACUAUACUGUAGUGUCCAGAAUGUUCAGACAUUCAGGGUGUACAUAAACA | 0.352
UACUUGCGAAGUUUCUAUGCAUACCUUUAAGUUCAGGCCCUAGGUGAAGGACAGUCCCUCAGCCUUUCCAUUGGUUCCUUUGUGUUCAGUGCACCCAGCCUUUGAACAGA | 0.679
UGUAAUGGCCUGAGGGAUGGUGAAGCAUUCUUUUAGUAUUUUUCAUCAUGUUGGGCUCCUAGAUUGUACUGGGGUUGCCCAUAAAUCAAACCCCAUACUCUUAGAAUUCA | 0.217
CUCAAGAUGUAUCUGAGUAGCUGCCUGAAAGCAGAUGACACUGCAGUCAGGAGGUGAGAGGCUGAGGAAAGAGCCAGCAUCAGGAGGUGACUCUGGUUGGCAAGGGUGAG | 0.486
UACUGGCCUACCCUUACCCCAUGCAUUCUUCCUGUCUGCACUGCCUGGGCCAAGGGGCAGAAACACUCUGCUCUUCUUCCCCAGGACAUUCCCAGGCUUGGGGUUUUUCU | 0.266
AUACCAGUAAAACAGAUUCUGACGUGUUUGUAGUUAUCAAAUGAAUGGCUCGAAACACUUCUCAAAAGGAUAUACGUAUUGACCCCAACAAUAAAUGUUUGUGGCUAGUG | 0.397
UUCUUGGUCACAAUAUUUUUUAGUGGAAUUCCUCUCAAGGUUUUUAUACUCCUGUGUAAUAAGACUGAUGCAGAGCCCUGAAUUUCAUUCUGUCUAUGAAUACCUUUUUG | 0.517
CUGGGUCCUAGCGACACCUCCUCACCCAAAUUUUCCUGUCUUCAAUAUCCUCAACAGACAAAAGAAGACAGGAAGCUUUUGGAGGCACGGGAAAAUUUUUGCUUGCUUGU | 0.828
CUUUGUGUGUGAUAUUUUAAUCAAAAGUGGUUGAGUUGUUAACAGUGUUCUUUGAAAGAAUCUCUAAAAGGCUUAUAAAUGUUUGAAAUAUCACACAAAGGCUGAUUUCU | 0.33
AAAGCCCUUAAUAAAUAUUUUACAUCCUUUCUAAUGACAAUGAAUGGAAUUAAUCACUCAACAGGUAUAGUAUUACGACUCAUGUUUACUUUUUAAAAUGAUUUAGACCG | 0.509
CCUCCCCUAAUCUGAGAAGUCAGCCUCUUGGCUCCUCAGGCCACCAUUUAGGCCUGACUGGGGUAAGAAAUGUCGCUCCACUUUACAGAGGUAGCUGUGGUGUUGAAACA | 0.22

Block 2
Target: Sox-I, HMG box (Salpingoeca helianthica)
Method: Spec-seq
Form: double-stranded DNA, one strand shown
Medium: in vitro
Tested at: not given
Notes: whole probe, mean of replicates
Baseline: not given
Reading: lower = stronger binding
Shared flanks, not repeated: GAGTCGTCTCGTCAGCAC … CCGTAGAGCACTCAGGTC
Target sequence (chain): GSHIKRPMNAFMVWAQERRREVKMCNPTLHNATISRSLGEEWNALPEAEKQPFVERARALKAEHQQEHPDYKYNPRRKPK
Strand | relative binding energy [ln ratio]
CATTCCT | 0.61
CATGCTA | 0.569
CATAGTG | 0.0317
CATGCAC | 0.756
CATACGT | 0.671
CATCGGA | 0.999
CATTCAT | -0.392
CATGAAG | 0.956
CATTGTC | -2.04
CATGGCG | 0.962
CCGAGTT | 0.919
CATAGGT | 0.387
CATCGAG | 0.955
CGCTGTT | -0.635
CATAGGA | 0.162
TCCCGTT | 0.591

Block 3
Target: Interferon regulatory factor 5, full length, phosphomimetic (IRF5, Homo sapiens, UniProt Q13568-2, residues 1-514, S451D/S453D/S456D/S462D)
Method: protein-binding microarray
Form: double-stranded DNA, one strand shown
Medium: in vitro
Tested at: 940 nM top
Notes: 60-bp whole probe
Together with: salmon DNA 0.4 mg/ml
Baseline: random background probes
Reading: higher = stronger binding
Shared flanks, not repeated: GCCTAGCAC … GTCTTGATTCGCTTGACGCTGCTG
Strand | fitted relative affinity [z-score]
GATGGACTGGGACTGGGGACGTGCTAG | -0.577
GACGATTTCAGTCTCGAGATGTGCTAG | 1.67
TTAGTACTGGGGTATCGATTAGTGCTA | 2.96
TTAGGTCTCCTTTTCCTTTAGTGCTAG | 0.628
GACTATTCCAGTTTCGAGACGTGCTAG | 4.77
GACGGTTTCGGGACTGTGGACGTGCTA | 6.79
GTTTCTTTTCTTTTCTTTTTGTGCTAG | 2.99
TCACCTATCTCCTCACAGACTGTGCTA | 1.02
CACCCACTCTTTCCTCACCATGTGCTA | 1.74
CAAACAGAGACCCGGCAAGTGTGCTAG | -0.376
AAGCCAGCCAAGGCCACTGTGTGCTAG | -0.778
GACGTTCTCCTTCTCCTGACGTGCTAG | 0.663
TTAGGTATCCTTCTACTTTAGTGCTAG | 0.824
TCACCTATTTATATGAGACTGTGCTAG | 0.545
CCTAGGGGCGGGGCCAAATGGTGCTAG | 1.41
GACGTACTGCTTCTCCTGACGTGCTAG | 0.237
TCAATTTACATTTTAGTACTGTGCTAG | 0.173
TTAGGTTTCGGATTTCGGTTAGTGCTA | 8.22
GACGATTTCGGGAATCGAGACGTGCTA | 0.491
TGTTATTAAAATTTCATGAAGTGCTAG | 0.356
TTAGGTATCCTACTGCTTTTGTGCTAG | 0.153
TTAGGTCTGGGGACTGGGTTAGTGCTA | -0.499
TCAATTTTCTCTGTTCTACTGTGCTAG | 1.89
GTCGGTCTCGGTCTCGGGACGTGCTAG | 6.51
TTAGAACTGGGGACTGCATTAGTGCTA | -0.229

Block 4
Target: Hepatocyte nuclear factor 3-beta, forkhead domain (FOXA2, Homo sapiens, UniProt Q9Y261, residues 142-269)
Method: protein-binding microarray
Form: double-stranded DNA, one strand shown
Medium: in vitro
Tested at: not given
Notes: k-mer, scored over probes, only values ≥0.25
Reading: higher = stronger binding
Target sequence (chain): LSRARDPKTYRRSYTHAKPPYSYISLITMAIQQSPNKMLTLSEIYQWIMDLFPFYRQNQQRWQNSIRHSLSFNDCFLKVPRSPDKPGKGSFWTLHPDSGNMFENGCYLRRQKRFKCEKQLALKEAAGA
Strand | E-score
ATCTAATA | 0.336
ATCATATG | 0.324
CTATATTA | 0.327
TAACTAGA | 0.31
ACGGATAT | 0.271
TAAATCAA | 0.321
ATTATGTG | 0.346
CATATAAG | 0.28
AAATATCG | 0.251
ATATGTGA | 0.402
ATATCACC | 0.291
ATATGATC | 0.277
ATGATAAT | 0.282
CTAATAAA | 0.26
ATATAGTC | 0.322
GACAACAA | 0.289
GTTGTATA | 0.296
ACATTATC | 0.295
ACAAATAT | 0.421
GTATGTCA | 0.309
CAGTATAC | 0.257

Block 5
Target: RING finger protein unkempt homolog, zinc fingers 1-6, GST-SBP tag (UNK, Homo sapiens, UniProt Q9C0B0, residues 30-357)
Method: RNA Bind-n-Seq
Form: RNA
Medium: in vitro
Tested at: not given
Notes: RNA with constant flanks, human-mouse chimeric sites, ends assumed
Baseline: input RNA pool
Reading: higher = stronger binding
Shared flanks, not repeated: GGGAGUUCUACAGUCCGACGAUC … CAACAGAGGAUUGAGCAUCA
Target sequence (chain): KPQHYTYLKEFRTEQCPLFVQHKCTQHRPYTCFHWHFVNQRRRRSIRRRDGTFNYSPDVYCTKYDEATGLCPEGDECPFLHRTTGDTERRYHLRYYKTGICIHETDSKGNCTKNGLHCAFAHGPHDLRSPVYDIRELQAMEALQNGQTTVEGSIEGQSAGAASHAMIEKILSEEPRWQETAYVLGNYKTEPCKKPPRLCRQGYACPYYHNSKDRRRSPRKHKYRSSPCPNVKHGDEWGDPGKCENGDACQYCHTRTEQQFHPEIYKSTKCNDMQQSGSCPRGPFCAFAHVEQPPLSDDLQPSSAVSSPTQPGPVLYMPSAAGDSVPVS
Strand | bound/input enrichment [ratio]
AUGGAGAAGGAUUCUCUGCCCCGCUUUGUGCGCUCUGAAUUUUAUAAGGAGCUAAUCAAGUAGUCAUCUGGUCAGGCUUCCAAAAGUUGCCCUGUGAUAUUUCCUCCAUAAUAACCCGCA | 0.251
UUCAAAGAAAAGGGCAGCUGUGUCAUUUCAUAAGUAACUCUGGGGGAGGGAAAUUCUGUUCUUUUGUUUUUAGUUUUCCCAAAUGAAACCAACAUGCGUGUUGAAGAACUGAGAAAAAAU | 0.232
UUGCUACUGACUCCCUGGGUCAAGUUCCUGUGGGAAUCUUACAGGCAGUGUUUGGACCUUCUUCGAAACAAUUCUAGAGUAGAGCGCCUUUACCAUGAUAUCGCCCAACAAGCUUUCAAA | 0.169
GUAGCUGGGACUACAGAAAUGCUGGUAAUUUCAGUCAGUGAGUCGUGACUUCUGAUGUCCCAGCAAAUGUUGGCAUUCACUGCAAUAGAGAAGAUACUUCUGAGGACCCACGUCUAAGGU | 0.114
CUGGGUAUUAUUUCUCGUGCUGUUAGACACCUGUUCAAGAGUAUUGAUGAGAAAAAGACCUCAGCGAUUAAAAACGGGCUGCCCCCUCCUGAAUUCAAAGUGAAUGCCCAGUUCCUAGAG | 0.0704
AAAGUGGACUAUGGCGAAUACAUGGAUAAAAACAAUGUGAGGCGACAAGCAACAACAAUCAUAGCUGAUAACAUUAUAUUUCUGAGUGACCAGACAAAAGAAAAGGCAUAGAACGGAUGA | 1.9
GUACUGCAGCAGCAGGGAAAACUGCAGGAAGCUCUGAUGCAUUAUAAAGAAGCCAUACGAAUUAGUCCUACCUUUGCUGAUGCCUACUCUAAUAUGGGAAACACUCUAAAGGAGAUGCAG | 0.52
UUGAAAACUGAUUCAAGUAAGUUUGAGUAUCACAAUGUUAGCUUUCUAAUUCCAUAAAAGUACUUGGUACAGUUUCUUUAUAAUCUGACAUCACCCCAGCGCCAUUUAGAUCAGCUUACU | 2.97
GCUCUUGGGAAUGUAAUCAGCGCCUUGGGGGACAAGAGCAAGAGAGCCACCCAUGUCCCUUACAGAGACUCUAAGCUGACAAGACUCUUGCAGGAUUCCCUCGGGGGUAACAGCCAAACC | 0.129
UCCCUGUUGCUGAAUAAAUGGCUUGUAAAGAAGUUUUUCCAAGCUGUAACCCAUGCUGUUAUUAUAGUUGCUGCAAAAUGUCUCUUAUGAUAUUGAUUUUAUUUGUUAACUGAAGGUCUC | 0.391
AACAUUUUGUCAAAUUGUUAUGUUCCUGUGAAACAAGUGAACACUCUGAUACACUUCAUCUGCUUGUACAUCUGUAUUUGUAUAAUAUGUAAAUAUGUUAAUCCAAGCAAUGUGUCACUU | 0.148

Repeated from above (block 2):
Strand | relative binding energy [ln ratio]
CATGCAC | 0.756
CATACGT | 0.671
CATCGGA | 0.999
CATTCAT | -0.392
CATGAAG | 0.956
CATTGTC | -2.04
CATGGCG | 0.962
CCGAGTT | 0.919
CATAGGT | 0.387
CATCGAG | 0.955
CGCTGTT | -0.635
CATAGGA | 0.162
